Assay results from different studies.
Lines come from different studies, so protocols differ. Values joined by “and” are separate records of one study, mostly repeats; a detail may differ. ± gives the spread as reported.
GBA2: Beta-glucosidase (GBA2, Homo sapiens, UniProt Q9HCG7)
ADRA1B: Alpha-1B adrenergic receptor (ADRA1B, Homo sapiens, UniProt P35368)
CASP3: Caspase-3 (CASP3, Homo sapiens, UniProt P42574)
PTH1R: Parathyroid hormone/parathyroid hormone-related peptide receptor (PTH1R, Homo sapiens, UniProt Q03431)
B4GALT1: Beta-1,4-galactosyltransferase 1 (B4GALT1, Homo sapiens, UniProt P15291)
SEPTIN9: Septin-9 (SEPTIN9, Homo sapiens, UniProt Q9UHD8)

Structure (SMILES)	target	assay	test system	setting	scale	endpoint	result
OC[C@@H]1[C@@H](O)[C@H](O)[C@@H](O)CN1CCCCCOCc1ccc(-c2ccc(Cl)cc2)cc1	GBA2	inhibitor, 4MU-β-D-glucopyranoside	HEK293T homogenates overexpressing GBA2		baseline: GCS IC50 over GBA2 IC50	selectivity ratio	13
O=C(N1CCCC1)n1cc(-c2ccc(-c3ccccc3)cc2)nn1	Lysosomal Pro-X carboxypeptidase (Mus musculus, UniProt Q7TMR0)	enzyme activity, inhibitor, competitive ABPP-SILAC, refers to: Prcp	mouse T-cells	concentration not given, 4 h, treated in situ	baseline: DMSO	activity ratio	1.37
O=C(Nn1c(-c2cccc(Cl)c2)nc2ccccc2c1=O)c1ccccc1	TRPM channel TRPM_PZQ (Schistosoma mansoni, UniProt A0A5K4F0X5)	cell-attached patch clamp		10 µM		single channel conductance	152 ± 12 pS
CC(C)[C@@H]1NC(=O)[C@H](Cc2ccccc2)NC(=O)CSC[C@@H](C(N)=O)NC(=O)[C@H](CCC(=O)O)NC(=O)[C@H](CO)NC(=O)[C@H](Cc2c[nH]c3cccc(Cl)c23)NC(=O)[C@H](C2CCCCC2)NC(=O)[C@H](C(C)C)NC(=O)[C@H](Cc2ccc(O)cc2)NC(=O)[C@H](CC(=O)O)NC(=O)[C@H](Cc2c[nH]c3ccccc23)NC(=O)[C@H](Cc2ccc(N)nc2)NC(=O)[C@H](Cc2c[nH]c3ccc(Cl)cc23)NC(=O)[C@H](CCC(=O)O)NC1=O	Interleukin-1 receptor-like 2 (IL1RL2, Homo sapiens, UniProt Q9HB29)	reporter gene (SEAP), inhibitor, HEK-Blue IL-36R reporter	HEK-Blue IL-36R cells	0.0017 µM, 6 h, together with: IL-36γ 1 ng/mL		remaining activity	91.5%
O=c1cc(Cn2ccnc2)c2cc3c(cc2o1)CCC3	ADRA1B	intracellular Ca2+ mobilization, agonist	COS-7	500 µM	baseline: 3 µM ionomycin	agonist activity	19.9 ± 2.78%
N#CN1CC[C@H](C(=O)Nc2nc3c(s2)CN(C(=O)Cn2cc(COCCOCCOCCOCCNC(=O)CCCC[C@@H]4SC[C@@H]5NC(=O)N[C@@H]54)nn2)CC3)C1	USP9X (Homo sapiens, UniProt Q93008)	probe binding, affinity probe, neutravidin pull-down LC-MS/MS	HEK293T, cell lysate	5 µM, 1 h, single replicate, unit not given	higher = more pulled down	iBAQ abundance	2.66e+06 and 2.42e+06 and 751000
CC1(C)C[C@@H](Nc2cccc(-c3sc(C(=O)O)c(OCC(=O)O)c3Cl)c2)CCN1S(=O)(=O)Cc1cccc(NC(=O)CN2CCC(c3ccc4c(c3)oc(=O)n4C3CCC(=O)NC3=O)CC2)c1 (stereo partly shown)	Tyrosine-protein phosphatase non-receptor type 2 (Ptpn2, Mus musculus, UniProt Q06180)	degrader, Western blot	B16-F10	0.001 µM		remaining protein	111% and 98.8%
CCCc1cc(=O)oc2cc(O)c(O)cc12	ADRA1B	intracellular Ca2+ mobilization, agonist	COS-7	500 µM	baseline: 3 µM ionomycin	agonist activity	2.8 ± 1.52%
O=C1c2sc(-c3ccc(N4CCC(F)C4)nc3F)nc2CCN1c1cccnc1 (stereo not shown)	MCHR1 (Homo sapiens, UniProt Q99705)	ligand displacement, radioligand		1 µM		inhibition	7%
C=CC(=O)N1CCCC(n2c(=O)c3ncccc3n(Cc3ccc(Oc4ccccc4)cc3)c2=O)C1 (stereo not shown)	Copper homeostasis protein cutC homolog (CUTC, Homo sapiens, UniProt Q9NTM9)	thermal proteome profiling, refers to: CUTC		unit not given	baseline: vehicle	melting temperature shift	2.44
C#CCCCCNC(=O)c1ccc(N(C(=O)C=C)c2ccc(Br)cc2)cc1	NCEH1 (Homo sapiens, UniProt Q6PIU2)	mass spectrometry profiling	Ramos cell lysate	100 µM over 10 µM, UniProt Q6PIU2	baseline: high over low concentration	reactivity ratio	0.607
CC(=O)N[C@@H](CC(C)C)C(=O)N[C@@H](CCC(N)=O)C(=O)N[C@@H](CO)C(=O)N[C@@H](CC(=O)O)C(=O)COC(=O)c1c(C)cccc1C	CASP3	enzyme activity, inhibitor				kinact/KI	28800 M⁻¹ s⁻¹
CCCCCN1C[C@@H](O)[C@H](O)[C@H](O)[C@@H]1CO	GBA2	inhibitor, 4MU-β-D-glucopyranoside	HEK293T homogenates overexpressing GBA2		baseline: GBA1 IC50 over GBA2 IC50	selectivity ratio	4000
CC(C)Oc1cc(Cl)ccc1CNc1cc(-c2ccccc2)nc2ncnn12	GPR3 (Homo sapiens, UniProt P46089, Q211A)	agonist, cAMP GloSensor		concentration not given, Q211A mutant	baseline: wild type	potency reduction	77 fold
CCCCCCCCCCCCCCCC(=O)N[C@@H](CCCNC(=N)N)C(=O)NCCCC[C@H](NC(=O)[C@H](CCC(N)=O)NC(=O)[C@H](Cc1c[nH]cn1)NC(=O)[C@H](CCCC)NC(=O)[C@H](CC(C)C)NC(=O)[C@H](CCC(N)=O)NC(=O)[C@@H](NC(=O)[C@H](CCC(=O)O)NC(=O)C(C)(C)NC(=O)[C@@H](NC(=O)C1(N)CCCC1)C(C)C)[C@@H](C)CC)C(N)=O	PTH1R	cAMP response, agonist, GloSensor cAMP	GP-2.3	ligand-on phase		Emax (normalized AUC)	106 ± 6%
O=C(CCCCCCS)Nc1ccccc1	HDAC8 (Homo sapiens, UniProt Q9BY41)	ITC	Tris buffer	pH 7.5		TΔS	2.8 kcal/mol
OC[C@@H]1[C@@H](O)[C@H](O)[C@@H](O)CN1CCCCCOCc1ccc(-c2ccc3c(c2)OCO3)cc1	GBA2	inhibitor, 4MU-β-D-glucopyranoside	HEK293T homogenates overexpressing GBA2		baseline: GCS IC50 over GBA2 IC50	selectivity ratio	13
CN1CCCC1CC(=O)N1CCC(c2cccc(O)c2)CC1 (stereo not shown)	B4GALT1	enzyme activity, inhibitor, UDP-Glo		100 µM	lower means stronger inhibition	luminescence	49600 a.u.
Cc1ccc(CN)cc1	Maoa (Rattus norvegicus, UniProt P21396)			pKa-corrected		log Kd	-6.4 M
C#CCOC(=O)[C@]1(C)C=C(C(=O)OC(C)(C)C)C(=O)CC1	MAPK14 (Homo sapiens, UniProt Q16539)	kinase activity, Kinase-Glo		concentration not given		normalized luminescence	-0.058

Structure (SMILES)	target	assay	test system	setting	scale	endpoint	result
C[C@@H](OCCCCCN1C[C@H](O)[C@@H](O)[C@H](O)[C@H]1CO)c1ccc(-c2ccccc2)cc1	GBA2	inhibitor, 4MU-β-D-glucopyranoside	HEK293T homogenates overexpressing GBA2		baseline: GBA1 IC50 over GBA2 IC50	selectivity ratio	100000
CC(=O)c1cnc(N)nc1N1CC[C@H]1c1nn2ccc(Cl)c2c(=O)n1-c1ccccc1	PIK3CG (Homo sapiens, UniProt P48736)	KiNativ	intact human PBMC	0.01 µM, 1 h		target engagement	29%
CCCCCCCCCCCCCCCC(=O)N[C@H](CCC(=O)O)C(=O)NCCCC[C@H](NC(=O)[C@H](CCC(N)=O)NC(=O)[C@H](Cc1c[nH]cn1)NC(=O)[C@H](CCCC)NC(=O)[C@H](CC(C)C)NC(=O)[C@H](CCC(N)=O)NC(=O)[C@@H](NC(=O)[C@H](CCC(=O)O)NC(=O)C(C)(C)NC(=O)[C@@H](NC(=O)C1(N)CCCC1)C(C)C)[C@@H](C)CC)C(N)=O	PTH1R	cAMP response, agonist, GloSensor cAMP	GP-2.3	ligand-on phase		Emax	93.2 ± 5.1%
OC[C@@H]1[C@@H](O)[C@H](O)[C@@H](O)CN1CCCCCOCc1ccc(-c2ccccc2)cc1F	GBA2	inhibitor, 4MU-β-D-glucopyranoside	HEK293T homogenates overexpressing GBA2		baseline: GBA1 IC50 over GBA2 IC50	selectivity ratio	3120
Fc1ccc(Nc2nc(NC3CCCCC3)c3ccccc3n2)cc1F	ADRB2 (Homo sapiens, UniProt P07550, G162A)	β-arrestin2 recruitment, antagonist, BRET		mutant G162A	baseline: isoprenaline maximal response	maximal inhibition	4.9%
Nc1nc(SCc2ccc(Cl)cc2)nn1S(=O)(=O)c1cccc(Cl)c1	LYPLAL1 (Homo sapiens, UniProt Q5VWZ2)	enzyme activity, activator, gel-based ABPP	purified protein	concentration not given, together with: FP-rhodamine	baseline: DMSO	probe labeling increase	2.5 fold
CC(=O)N[C@@H](CC(C)C)C(=O)N[C@@H](CCC(=O)O)C(=O)N[C@@H](COCc1ccccc1)C(=O)N[C@@H](CC(=O)O)C(=O)COC(=O)c1c(C)cccc1C	CASP3	enzyme activity, inhibitor				kinact/KI	352000 M⁻¹ s⁻¹
N=C(N)c1ccc(-c2csc(-c3ccc(C(=N)N)cc3)n2)cc1	PRMT5 (Homo sapiens, UniProt O14744)	enzyme activity, inhibitor, radiometric		20 µM		remaining activity	109%
Nc1ncc2c(n1)-c1c([nH]c3ccc(C4=CCOCC4)cc13)CCC2	MAP3K19 (Homo sapiens, UniProt Q56UN5)	radiometric kinase			baseline: Kd PI5P4K gamma over Kd target	selectivity ratio	> 31 fold
N[C@H]1CC[C@H](Nc2nccc(-c3cccnc3Oc3ccc(NC(=O)NC4CC4)c4ccccc34)n2)CC1	DYRK1A and DYRK1B (human)	kinobead competition pulldown	HEK293/HCT116 lysate mixture	10 µM, 1 h, 4 °C	lower = stronger competition	log2 LFQ intensity	20.5 and 20.7 and 20.6 and 21.4
CCCCCC=CC=C1C(=O)C=CC1CC=CCCCC(=O)O (stereo not shown)	SEPTIN9	competitive isoTOP-ABPP, refers to: SEPT9 cysteine peptide	Ramos soluble proteome	100 µM, together with: iodoacetamide probe	baseline: DMSO over compound-treated, higher = stronger cysteine blockade	isoTOP-ABPP competition ratio	2.2
COc1ccc([C@H]2N[C@H](C(=O)O)C(C)(C)S2)c(O)c1	B4GALT1	enzyme activity, inhibitor, UDP-Glo		100 µM	lower means stronger inhibition	luminescence	22900 a.u.
CC(=O)N[C@@H](CC(C)C)C(=O)N[C@@H](CCC(=O)O)C(=O)N[C@H](C(=O)N[C@@H](CC(=O)O)C(=O)COC(=O)c1c(C)cccc1C)C(C)C	CASP3	enzyme activity, inhibitor				kinact/KI	457000 M⁻¹ s⁻¹
OC[C@@H]1[C@@H](O)[C@H](O)[C@@H](O)CN1CCCCCOCc1ccsc1	GBA2	inhibitor, 4MU-β-D-glucopyranoside	HEK293T homogenates overexpressing GBA2		baseline: GBA1 IC50 over GBA2 IC50	selectivity ratio	2750
CC(=O)N[C@@H](CCC(C)C)C(=O)N[C@H](C(=O)N[C@@H](CO)C(=O)N[C@@H](CC(=O)O)C(=O)COC(=O)c1c(C)cccc1C)C(C)(C)C	CASP3	enzyme activity, inhibitor				kinact/KI	6600 M⁻¹ s⁻¹
CCCCCOCCCCCN1C[C@H](O)[C@@H](O)[C@H](O)[C@H]1CO	GBA2	inhibitor, 4MU-β-D-glucopyranoside	HEK293T homogenates overexpressing GBA2		baseline: GBA1 IC50 over GBA2 IC50	selectivity ratio	17600
Cc1cc(C(=O)N2Cc3ccccc3CC2C(=O)O)cc(=O)[nH]1 (stereo not shown)	B4GALT1	enzyme activity, inhibitor, UDP-Glo		10 µM	lower means stronger inhibition	luminescence	59000 a.u.
OC[C@@H]1[C@@H](O)[C@H](O)[C@@H](O)CN1CCCCCCC12CC3CC(CC(C3)C1)C2	GBA2	inhibitor, 4MU-β-D-glucopyranoside	HEK293T homogenates overexpressing GBA2		baseline: GCS IC50 over GBA2 IC50	selectivity ratio	4000
CCCCCC(O)/C=C/C=O (stereo not shown)	SEPTIN9	competitive isoTOP-ABPP, refers to: SEPT9 cysteine peptide	Ramos soluble proteome	100 µM, together with: iodoacetamide probe	baseline: DMSO over compound-treated, higher = stronger cysteine blockade	isoTOP-ABPP competition ratio	1.5
Cc1cc(NC(=O)C(C(F)(F)F)C(F)(F)F)ccn1	Chymotrypsinogen A (Bos taurus, UniProt P00766)	enzyme activity, inhibitor				IC50	inactive
